Measured values pooled from the literature.
A part holds a random share of what one study measured. Changes are numbered by the printed parent chain.

Study 1 — target: CCND1, cyclin fold, Cln2 fusion (human); technique: yeast growth competition, sequencing; sample: yeast; setting: strong parent motif; baseline: not given; direction: higher = stronger binding
Parent: CDKN1A docking peptide (human); SKACRRLFGPVDS
Substitution	normalised enrichment score
SKACRRLFNPVDS [G9N]	2.6
SKSCRRLFGPVDS [A3S]	0.346
SKAQRRLFGPVDS [C4Q]	1.39
STACRRLFGPVDS [K2T]	3.15
SKACRQLFGPVDS [R6Q]	3.41
SKACQRLFGPVDS [R5Q]	0.205
SKADRRLFGPVDS [C4D]	0.244
SKACRRLFGPIDS [V11I]	2.75
SKACRRLFGPVIS [D12I]	1.45
SKACRHLFGPVDS [R6H]	0.968
SKAGRRLFGPVDS [C4G]	0.169
SKAVRRLFGPVDS [C4V]	1.57
SKACRRLFGPSDS [V11S]	3.54
SGACRRLFGPVDS [K2G]	2.82
SKACPRLFGPVDS [R5P]	0.439

Study 2 — technique: RNA Bind-n-Seq; molecule type: RNA; sample: in vitro; tested at: not given; baseline: input RNA pool; direction: higher = stronger binding
Target: RING finger protein unkempt homolog, zinc fingers 1-6, GST-SBP tag (UNK, Homo sapiens, UniProt Q9C0B0, residues 30-357)
Chain of UniProt Q9C0B0 (30-357, looked up): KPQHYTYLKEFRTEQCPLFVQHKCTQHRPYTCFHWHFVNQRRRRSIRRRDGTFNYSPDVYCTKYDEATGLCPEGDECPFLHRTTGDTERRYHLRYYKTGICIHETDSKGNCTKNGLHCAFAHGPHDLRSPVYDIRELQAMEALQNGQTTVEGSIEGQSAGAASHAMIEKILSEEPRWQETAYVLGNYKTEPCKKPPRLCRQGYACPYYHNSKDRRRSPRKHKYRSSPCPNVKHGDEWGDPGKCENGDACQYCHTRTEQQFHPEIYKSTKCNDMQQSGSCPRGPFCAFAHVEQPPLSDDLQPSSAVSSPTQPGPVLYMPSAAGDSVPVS
Setting: RNA with constant flanks, human and mouse sites, ends assumed
Sequence	bound/input enrichment [ratio]
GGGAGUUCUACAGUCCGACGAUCGAAAUGGAAGAUGCACACACAGCUGUUGUAGGUAUUCCUCACGGCUUGGAAGACUGGUCAUUUUUUGCAGUUUAUGAUGGUCAUGCUGGAUCCCGAGUGGCAAAUUACUGCUCAACACAUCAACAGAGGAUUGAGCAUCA	0.228
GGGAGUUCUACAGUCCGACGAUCAUAUAUAUACACACACACAUAUAUAUAUUUAGAAACGUGAGUGUUAAAGAUAGAAUUUGUUUUAGGACAAAUUUUAAGAAAAUGUGGGAAUACCAAAUGUCCUUUAUAAGAAAAAUAAAUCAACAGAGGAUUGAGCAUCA	0.947
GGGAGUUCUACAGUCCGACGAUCCGAAUCCACUGCAGUAAAUCUUCAGUCCGCAGCAGGAGAAGCAGUCCUAAAAGGAAGCGCAAUAGACACUGUUCAAGUCAUCAGUCACGUUCGAAGAGCCACCGAAGGAAAAGAUCCAGGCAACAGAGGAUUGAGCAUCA	0.177
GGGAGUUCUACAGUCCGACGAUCAUCAGGAGGAAAAGAUGUUGAAACAAGAAAACAGAUCGCAGGGUUACAAAAAAGAAUCCAAGACUUAGAAACAGAAAAUAUGGAACUUAAAAAUAAAGUACAAGAUUUGGAAAACCAACUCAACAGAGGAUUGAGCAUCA	1.2
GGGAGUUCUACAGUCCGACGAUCUUUCAUAAUUUUUACUGACGCUCAGUAACCAUGCAAAAUUGUGUAUAGCAUUAAUGUAUCUACAUACCUACACCUAUCUAUAUAUAAGCUCAUGGUAGAAAACCAUAGCUAAGUAGCAUCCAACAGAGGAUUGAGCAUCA	0.54
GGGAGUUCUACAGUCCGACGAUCCACAAGAUGGAGCAGGAAAUGACCCGGUUACAUCGGAGAGUGUCAGAGGUGGAGGCUGUGCUUAGUCAGAAGGAGGUGGAGCUGAAGGCCUCUGAGACUCAGAGAUCCCUCCUGGAGCAGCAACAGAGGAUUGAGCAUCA	0.161
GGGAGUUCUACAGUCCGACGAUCGGUUUGCAAAUUUUUUUUAAAUGCAAUCUUUUUAUUUUUCUACUUGGUUUUGGUUAUAAUCAUAGAAAGCAAGAAACUAUUAUUGAAAUUAAUGUUUUCUUCUGAUAUAAUAAUGGAAGCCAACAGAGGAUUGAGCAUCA	0.818
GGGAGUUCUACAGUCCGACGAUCGCGGGCGGCCGCGAGUGAGCAGCGCGCGGGCCUGAGGGUACCUGAAGCUCAGCGCACAGCUGCUGUGACACCGCUGCGUGGACAAUGGCUACUCAAGCUGACCUGAUGGAGUUGGACAUGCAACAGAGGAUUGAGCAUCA	0.186
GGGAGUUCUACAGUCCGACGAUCGGAGGAGGAGCCGCGGGCAACGAGGUUUCUCUGUCAUUCACAGAAAAAUGAAUCAUUUAAACCUUUGGAGGACUCAGUUAUCACAAUACUUCUCUACUACCAACUAAGAUUUAUGAUAGUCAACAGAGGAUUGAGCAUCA	0.479
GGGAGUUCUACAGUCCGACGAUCCUGCAGUAAAACACAGAAGGCUUUAAAAUGUUUUCUUGCAUAAAAUUCAAAACUUUUAAGUAGCUGCUUAUGAGAAUAGGGAAGGCAGAAAGCUAAUGUCUGUCUCAAGAUACAGGACAGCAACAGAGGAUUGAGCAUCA	0.173
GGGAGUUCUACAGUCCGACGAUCGGCUAGCCCCAGACCCAAAGAAUAAGAGAUAGCGAAGUUACUACAGACGUGGUCAGGGACAUUAGAAGGAGGCAGACUGCUACAGUCAGAGGCCAGGCAGUACAUCUCAGAGACAAGCUGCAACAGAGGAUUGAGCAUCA	0.646

Study 3 — technique: RNA Bind-n-Seq; molecule type: RNA; sample: in vitro; tested at: 200 nM; setting: whole 134-nt RNA, ends assumed; together with: 150 mM KCl; baseline: input library; direction: higher = stronger binding
Target: Fragile X messenger ribonucleoprotein 1, C-terminal low-complexity region (Fmr1, Mus musculus, UniProt P35922)
Sequence	log2 enrichment
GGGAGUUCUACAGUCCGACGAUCCAUAGACAACACGCACCCACACAGACACAGAGGGAAGGGGUUGGGAUGGGGACAGGGUGCACAGCAGGGCGGGGUAGGACCCCAGCCCCUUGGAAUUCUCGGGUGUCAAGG	1.31
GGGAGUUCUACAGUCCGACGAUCUCCUGUGCUACACAUCGUAUGUACCGAAUCGGGGUUUUUUUGGGGUUUUUGGGGUGGGGAAAGUAUUAUGUUACGCCGUUCGGAUCUGCAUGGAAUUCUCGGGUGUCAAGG	0.746
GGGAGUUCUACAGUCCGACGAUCUCCCGGGCGCUAGCCCACCUCCCACCCGCCUCUUGGCUCCUCUCCUCUAGGCCGUCGCUUUCGGGUUCUCUCAUCGCUUCGUCGUUCGCCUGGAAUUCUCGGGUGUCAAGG	0.422
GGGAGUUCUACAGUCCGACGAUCAGUCCUGUGCUACACAUCGUAUGUACCGAAUCGGGAAAAAAAGGGAGGGUUUUUGGGAAAGUAUUAUGUUACGCCGUUCGGAUCUGCACUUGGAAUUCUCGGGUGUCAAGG	0.424
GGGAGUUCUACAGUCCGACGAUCGCAGGAAUUAAAAACAAAUGGAAAUGCUUCGGAUAGUGGCAGGGGUGGGGGUUGCUAAGGAAAGGGUGGGAUGGGAGUGGGUAAAGAGUUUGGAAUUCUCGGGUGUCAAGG	0.539
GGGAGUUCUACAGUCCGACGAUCUGUGCUACACAUCGUAUGUACCGAAUCGGGGAAAAAAAGGGGAAAAAAAGGGGAAAAAAAGGAAAGUAUUAUGUUACGCCGUUCGGAUCUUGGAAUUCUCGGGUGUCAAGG	-0.122
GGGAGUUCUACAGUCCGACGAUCUAACUUUAGAGGAGGAUCUGAUGGAUAUGGCAGUGGACGUGGAUUUGGGGAUGGCUAUAAUGGGUAUGGAGGAGGACCUGGAUGUGGCAAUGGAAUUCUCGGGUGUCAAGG	0.19
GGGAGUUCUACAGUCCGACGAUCACCAUGCAGGUGGGCAUCUUUGGGAAGUGGGGCAAGGGGGGGAUAGGGAGGGGGGUUACACUUUGGGAACAGGUGGUCCCAGGUCGUUUCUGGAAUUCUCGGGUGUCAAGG	0.79
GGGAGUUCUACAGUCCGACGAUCGCAGGAAGUAAAAACAAAUGGAAAUGCUUCGGAUAGUGGCAGGGGUGGGGGUUGCUAAGGAAAGGGUGGGAUGGGAGUGGGUAAAGAAUUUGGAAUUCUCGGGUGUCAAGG	0.133
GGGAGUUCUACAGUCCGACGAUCAAGUCCUGUGCUACACAUCGUAUGUACCGAAUCGGUUUUUUUGGUUUGGUUUUUGGAAAGUAUUAUGUUACGCCGUUCGGAUCUGCACUUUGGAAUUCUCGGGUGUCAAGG	-0.958

Study 4 — technique: universal PBM; molecule type: double-stranded DNA, one strand shown; sample: in vitro; tested at: 600 nM; direction: higher = stronger binding
Target: Sal-like protein 4, full length isoform A (SALL4, Homo sapiens, UniProt Q9UJQ4, residues 1-1053)
Chain of UniProt Q9UJQ4 (whole entry, looked up): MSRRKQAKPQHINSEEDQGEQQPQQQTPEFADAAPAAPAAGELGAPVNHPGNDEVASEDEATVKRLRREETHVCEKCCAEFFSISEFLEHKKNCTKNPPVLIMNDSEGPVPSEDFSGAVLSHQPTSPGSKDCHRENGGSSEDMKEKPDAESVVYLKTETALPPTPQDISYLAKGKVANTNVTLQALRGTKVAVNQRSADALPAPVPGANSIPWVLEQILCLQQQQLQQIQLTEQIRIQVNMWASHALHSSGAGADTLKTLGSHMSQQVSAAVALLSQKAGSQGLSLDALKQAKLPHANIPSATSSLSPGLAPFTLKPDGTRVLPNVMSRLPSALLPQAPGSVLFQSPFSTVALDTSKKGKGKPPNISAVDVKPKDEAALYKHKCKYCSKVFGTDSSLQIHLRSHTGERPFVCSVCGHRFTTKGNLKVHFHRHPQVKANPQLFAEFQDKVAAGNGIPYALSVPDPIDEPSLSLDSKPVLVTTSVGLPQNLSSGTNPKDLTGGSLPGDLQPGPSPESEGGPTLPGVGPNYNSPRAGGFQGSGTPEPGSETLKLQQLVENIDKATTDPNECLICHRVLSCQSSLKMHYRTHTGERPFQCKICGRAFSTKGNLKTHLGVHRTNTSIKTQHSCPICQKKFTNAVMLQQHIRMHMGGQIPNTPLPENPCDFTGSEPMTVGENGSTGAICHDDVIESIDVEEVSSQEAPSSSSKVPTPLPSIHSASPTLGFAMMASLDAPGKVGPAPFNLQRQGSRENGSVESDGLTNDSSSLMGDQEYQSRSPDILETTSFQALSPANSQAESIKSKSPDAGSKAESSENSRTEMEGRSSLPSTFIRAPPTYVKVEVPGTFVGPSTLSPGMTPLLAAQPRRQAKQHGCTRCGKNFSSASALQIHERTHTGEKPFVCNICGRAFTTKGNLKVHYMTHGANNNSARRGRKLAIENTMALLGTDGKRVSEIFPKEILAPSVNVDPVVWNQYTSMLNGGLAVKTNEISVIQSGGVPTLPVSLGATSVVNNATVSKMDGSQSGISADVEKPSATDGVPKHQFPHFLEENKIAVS
Setting: 8-mer, flanks averaged, mean of replicates
Sequence	E-score
ACCTGGGG	-0.394
CTACCGCC	-0.32
ACAGCACG	-0.232
ACGTACAG	0.0294
AGGAGTAC	-0.132
ACGTGTAG	-0.087
GCCAGGGA	-0.308
GAAATTCC	0.0357
CTAAACAC	0.194
CTGCTGTA	0.0361
AGCGTTAA	0.0336
CCGGATTC	-0.259
AACTCCCC	-0.0402
ACGCCTTC	-0.114
CCCACGGC	-0.309
AACACAGG	-0.148
GCGCATGA	-0.235
CACTGCCC	-0.251
GAGAAGGC	-0.196
CACGGCTA	-0.0849

A few entries again (study 1):
Substitution	normalised enrichment score
SKSCRRLFGPVDS [A3S]	0.346
SKAQRRLFGPVDS [C4Q]	1.39
STACRRLFGPVDS [K2T]	3.15
SKACRQLFGPVDS [R6Q]	3.41
SKACQRLFGPVDS [R5Q]	0.205
SKADRRLFGPVDS [C4D]	0.244
SKACRRLFGPIDS [V11I]	2.75
